Assay results of several laboratories.
MAPK9: Mitogen-activated protein kinase 9 (MAPK9, Homo sapiens, UniProt P45984)
Chain of UniProt P45984 (whole entry, looked up): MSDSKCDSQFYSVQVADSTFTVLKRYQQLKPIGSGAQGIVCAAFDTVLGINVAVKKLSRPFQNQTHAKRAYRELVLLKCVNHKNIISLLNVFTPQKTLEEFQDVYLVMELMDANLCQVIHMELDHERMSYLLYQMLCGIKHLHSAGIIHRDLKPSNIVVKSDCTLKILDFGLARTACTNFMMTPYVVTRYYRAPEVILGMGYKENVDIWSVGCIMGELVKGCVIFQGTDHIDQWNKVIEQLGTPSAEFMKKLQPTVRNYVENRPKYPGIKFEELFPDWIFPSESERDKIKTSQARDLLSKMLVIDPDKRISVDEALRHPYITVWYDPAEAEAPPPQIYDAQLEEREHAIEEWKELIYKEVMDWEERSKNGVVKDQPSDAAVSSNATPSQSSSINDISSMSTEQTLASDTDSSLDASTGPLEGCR

SMILES | target | assay | setting | scale | quantity | value
COc1cc(Nc2nccc(-c3cnn4nc(OC)ccc34)n2)cc(C(F)(F)F)c1 | MAPK9 | binding, competition with immobilised ligand | 1 µM |  | remaining binding | 89%
CN1CC[C@@H](COc2cnc(C#N)cc2-c2ccn3nc(NC(=O)C4CC4)cc3c2)C1 | Mitogen-activated protein kinase 9, isoform alpha2 (MAPK9, Homo sapiens, UniProt P45984) | kinase activity, inhibitor | 1 µM, together with: ATP 45 µM |  | inhibition | -4%
COC(=O)[C@@]1(C)C=C(C(=O)Nc2cccc(C(=O)Nc3ccc(Nc4nccc(-c5cccnc5)n4)c(C)c3)c2)C(=O)CC1 | MAPK9 | enzyme activity, inhibitor, radiometric | 1 µM |  | remaining activity | 7%
C=CC(=O)Nc1cccc(-c2cnc3[nH]cc(C(=O)NC(C)(C)C)c3n2)c1 | MAPK9 | enzyme activity, inhibitor | 0.1 µM |  | inhibition | -6%
CCN1CCN(Cc2ccc(C(=O)Nc3ccc(C)c(NCc4cnc5[nH]ccc5c4OC)c3)cc2C(F)(F)F)CC1 | MAPK9 | binding, competition with immobilised ligand | 1 µM |  | remaining binding | 9.2%
COc1ccc(C(=O)/C=C/c2ccccc2-c2c[nH]c3ccc(C#N)cc23)c(O)c1 | MAPK9 | enzyme activity, inhibitor | 20 µM |  | inhibition | -1%
Nc1ncc2c(n1)-c1c([nH]c3ccc(C4=CCOCC4)cc13)CCC2 | MAPK9 | binding, competition with immobilised ligand | 1 µM |  | remaining binding | 97%
CC(=O)Nc1ccc(-c2ccnc(NCC3CCC3)n2)cc1 | MAPK9 | cell-free assay, competition with immobilised ligand | 10 µM |  | remaining binding | 17%
Cc1cnc2nc1Nc1cccc(c1)COC/C=C/COCc1cc(ccc1OCCN1CCOCC1)N2 | MAPK9 |  | concentration not given, kinase construct JNK2 | reference: control | binding | 60%
CC(C)=CC1OC(C)(C)C2C=C3C(=O)C(Cl)=CC(O)C3C3C(O)C4OC4C(=O)C132 (stereo not drawn) | MAPK9 | cell-free assay, competition with immobilised ligand | 10 µM |  | remaining binding | 83%
C=CC(=O)N1CCCC(n2c(=O)c3ncccc3n(Cc3ccc(Oc4ccccc4)cc3)c2=O)C1 (stereo not drawn) | MAPK9 | cell-free assay, competition with immobilised ligand | 1 µM |  | remaining binding | 69%
CN1CCN(Cc2ccc(NC(=O)c3cccc(C#Cc4cnc(N)c5ncccc45)c3)cc2C(F)(F)F)CC1 | MAPK9 | cell-free assay, competition with immobilised ligand | 0.5 µM |  | remaining binding | 4.4%
C=CC(=O)N1CCc2ccc(-n3c(=O)ccc4cnc5ccc(-c6cnn(C)c6)cc5c43)cc21 | MAPK9 | KINOMEscan | 1 µM | reference: DMSO control | remaining binding | 79%
Cc1cccc(-c2ccc3nc(NC(=O)C4CCOCC4)nn3c2)c1 | MAPK9 | enzyme activity, Dundee kinase panel | 10 µM |  | remaining activity | 82%
C#CCOC(=O)[C@]1(C)C=C(C(=O)Nc2cccc(C(=O)Nc3ccc(C)c(Nc4nccc(-c5cccnc5)n4)c3)c2)C(=O)CC1 | MAPK9 | enzyme activity, inhibitor | 0.5487 µM, unit not given | reference: vehicle | remaining activity | 0.246
CCN1CCN(Cc2ccc(NC(=O)c3ccc(C)c(NC(=O)c4cncc(-c5cccs5)c4)c3)cc2C(F)(F)F)CC1 | MAPK9 | binding, competition with immobilised ligand | 1 µM |  | remaining binding | 24%
Cc1[nH]nc2c1N=C(c1ccccc1Cl)c1cnc(N3CCOCC3)cc1N2 | MAPK9 | enzyme activity, inhibitor | 0.5 µM |  | inhibition | 8.7%
Cc1cc(NC(=O)c2cccc(N)c2)ccc1Nc1nccc(-c2cccnc2)n1 | MAPK9 | enzyme activity, inhibitor | 0.5487 µM, unit not given | reference: vehicle | remaining activity | 0.765
CNC(=O)C1CCN(c2cc(C)c(F)cc2NC(=O)c2ccc(-c3cc(O)ccc3C)c(C)c2)CC1 | MAPK9 | binding, competition with immobilised ligand | 1 µM |  | remaining binding | 84%
NC(=O)C[C@H]1CCc2sc3ncnc(O[C@H]4CC[C@H](N5CCOCC5)CC4)c3c21 | MAPK9 | enzyme activity, inhibitor | 10 µM |  | inhibition | -4%
Cc1cccc(O[C@H]2CCC[C@@H](C(C)CNCc3ccncc3)C2)c1 (relative stereo) | MAPK9 | kinase activity, kinome panel screening | 1 µM |  | inhibition | 2%

Excerpt of the above:
SMILES | target | assay | setting | scale | quantity | value
COC(=O)[C@@]1(C)C=C(C(=O)Nc2cccc(C(=O)Nc3ccc(Nc4nccc(-c5cccnc5)n4)c(C)c3)c2)C(=O)CC1 | MAPK9 | enzyme activity, inhibitor, radiometric | 1 µM |  | remaining activity | 7%
C=CC(=O)Nc1cccc(-c2cnc3[nH]cc(C(=O)NC(C)(C)C)c3n2)c1 | MAPK9 | enzyme activity, inhibitor | 0.1 µM |  | inhibition | -6%
